Measured values collected from several papers.
Each numbered part is a random draw from the data of one study; scales do not carry over between parts.
Sequence of UniProt O75460 (whole entry, looked up): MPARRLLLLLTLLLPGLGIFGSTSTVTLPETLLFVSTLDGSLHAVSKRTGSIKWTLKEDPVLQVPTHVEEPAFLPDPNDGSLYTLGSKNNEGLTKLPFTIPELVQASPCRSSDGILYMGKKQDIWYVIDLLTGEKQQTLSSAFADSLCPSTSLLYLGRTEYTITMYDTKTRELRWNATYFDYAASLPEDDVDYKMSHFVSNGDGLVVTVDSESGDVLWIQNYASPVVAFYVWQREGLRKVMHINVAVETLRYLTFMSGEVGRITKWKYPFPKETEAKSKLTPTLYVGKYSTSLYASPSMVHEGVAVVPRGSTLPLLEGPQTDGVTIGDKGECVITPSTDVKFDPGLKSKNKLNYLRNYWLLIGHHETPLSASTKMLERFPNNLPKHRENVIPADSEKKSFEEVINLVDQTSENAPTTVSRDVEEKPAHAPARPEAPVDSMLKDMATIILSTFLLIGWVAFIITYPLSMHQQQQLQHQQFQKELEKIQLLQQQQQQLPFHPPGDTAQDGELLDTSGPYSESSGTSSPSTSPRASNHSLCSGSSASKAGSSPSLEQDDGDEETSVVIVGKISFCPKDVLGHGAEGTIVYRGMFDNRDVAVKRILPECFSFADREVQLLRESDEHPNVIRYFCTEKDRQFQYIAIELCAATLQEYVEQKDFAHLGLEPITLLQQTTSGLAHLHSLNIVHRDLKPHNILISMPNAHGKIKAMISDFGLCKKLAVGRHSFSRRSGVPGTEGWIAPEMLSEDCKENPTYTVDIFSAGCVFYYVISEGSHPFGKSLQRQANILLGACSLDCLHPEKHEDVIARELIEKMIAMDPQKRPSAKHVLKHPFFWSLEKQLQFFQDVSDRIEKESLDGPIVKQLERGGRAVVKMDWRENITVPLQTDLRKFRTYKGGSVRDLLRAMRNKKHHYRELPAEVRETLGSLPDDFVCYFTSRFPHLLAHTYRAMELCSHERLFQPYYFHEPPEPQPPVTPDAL
Sequence of UniProt O94806 (whole entry, looked up): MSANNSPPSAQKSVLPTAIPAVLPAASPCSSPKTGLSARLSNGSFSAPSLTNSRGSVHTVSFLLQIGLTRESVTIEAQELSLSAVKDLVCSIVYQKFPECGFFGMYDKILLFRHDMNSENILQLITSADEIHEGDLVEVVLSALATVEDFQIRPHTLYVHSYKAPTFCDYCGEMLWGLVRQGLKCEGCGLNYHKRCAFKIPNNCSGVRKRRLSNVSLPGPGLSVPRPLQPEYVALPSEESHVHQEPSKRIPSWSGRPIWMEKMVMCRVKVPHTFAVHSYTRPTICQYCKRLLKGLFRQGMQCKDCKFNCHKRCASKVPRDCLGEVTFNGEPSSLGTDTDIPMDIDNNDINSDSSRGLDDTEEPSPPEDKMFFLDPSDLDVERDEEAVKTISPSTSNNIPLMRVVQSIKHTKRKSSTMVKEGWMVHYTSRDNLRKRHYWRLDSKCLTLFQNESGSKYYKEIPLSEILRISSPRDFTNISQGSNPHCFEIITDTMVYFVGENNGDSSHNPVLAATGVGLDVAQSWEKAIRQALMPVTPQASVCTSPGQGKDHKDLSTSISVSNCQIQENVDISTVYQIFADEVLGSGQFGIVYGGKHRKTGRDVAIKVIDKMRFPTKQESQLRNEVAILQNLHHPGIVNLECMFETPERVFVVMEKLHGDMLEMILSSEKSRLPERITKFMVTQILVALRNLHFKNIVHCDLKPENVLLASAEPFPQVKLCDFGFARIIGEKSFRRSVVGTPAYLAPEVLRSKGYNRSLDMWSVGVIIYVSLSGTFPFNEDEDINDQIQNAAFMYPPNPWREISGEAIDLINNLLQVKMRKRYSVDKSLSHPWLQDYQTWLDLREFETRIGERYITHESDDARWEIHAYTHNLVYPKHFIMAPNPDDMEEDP
Sequence of UniProt Q13233 (whole entry, looked up): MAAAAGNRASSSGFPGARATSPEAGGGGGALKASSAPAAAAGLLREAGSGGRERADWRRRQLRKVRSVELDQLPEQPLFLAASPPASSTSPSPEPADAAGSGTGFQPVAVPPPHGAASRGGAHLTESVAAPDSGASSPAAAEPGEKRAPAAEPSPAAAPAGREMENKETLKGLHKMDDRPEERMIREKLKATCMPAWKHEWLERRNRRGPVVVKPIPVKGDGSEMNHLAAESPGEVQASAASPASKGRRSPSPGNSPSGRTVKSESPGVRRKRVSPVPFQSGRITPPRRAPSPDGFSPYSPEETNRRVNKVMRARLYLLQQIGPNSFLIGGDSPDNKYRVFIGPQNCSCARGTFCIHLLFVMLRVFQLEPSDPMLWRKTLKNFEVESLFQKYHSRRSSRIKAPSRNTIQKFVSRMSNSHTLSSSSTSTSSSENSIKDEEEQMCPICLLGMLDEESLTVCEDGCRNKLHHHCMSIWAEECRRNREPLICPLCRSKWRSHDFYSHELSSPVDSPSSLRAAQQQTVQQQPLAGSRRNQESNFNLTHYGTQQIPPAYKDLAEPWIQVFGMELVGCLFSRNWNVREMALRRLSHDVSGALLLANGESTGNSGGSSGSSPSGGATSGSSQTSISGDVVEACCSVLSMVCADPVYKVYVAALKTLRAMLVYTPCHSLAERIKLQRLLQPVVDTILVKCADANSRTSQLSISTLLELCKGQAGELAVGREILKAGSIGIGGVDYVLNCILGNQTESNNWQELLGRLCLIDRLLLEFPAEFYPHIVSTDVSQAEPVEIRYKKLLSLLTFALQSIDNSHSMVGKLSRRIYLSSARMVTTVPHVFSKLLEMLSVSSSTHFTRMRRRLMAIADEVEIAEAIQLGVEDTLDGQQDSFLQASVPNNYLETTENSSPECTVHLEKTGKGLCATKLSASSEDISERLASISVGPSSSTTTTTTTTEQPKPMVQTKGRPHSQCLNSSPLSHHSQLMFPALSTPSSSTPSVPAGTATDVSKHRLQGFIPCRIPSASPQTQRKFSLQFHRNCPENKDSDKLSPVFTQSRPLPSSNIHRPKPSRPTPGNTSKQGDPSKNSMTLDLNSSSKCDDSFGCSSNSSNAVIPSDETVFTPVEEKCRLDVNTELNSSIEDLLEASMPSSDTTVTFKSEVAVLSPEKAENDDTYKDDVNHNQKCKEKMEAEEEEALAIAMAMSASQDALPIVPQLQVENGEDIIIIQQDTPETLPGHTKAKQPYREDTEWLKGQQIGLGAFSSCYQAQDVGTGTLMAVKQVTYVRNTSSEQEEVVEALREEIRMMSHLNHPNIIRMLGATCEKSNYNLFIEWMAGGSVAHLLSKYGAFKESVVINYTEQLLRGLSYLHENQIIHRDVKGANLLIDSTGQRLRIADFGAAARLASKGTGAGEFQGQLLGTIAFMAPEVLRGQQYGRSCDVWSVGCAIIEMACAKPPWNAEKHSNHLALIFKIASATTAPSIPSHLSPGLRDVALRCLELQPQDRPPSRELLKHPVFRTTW
Sequence of UniProt Q02750 (whole entry, looked up): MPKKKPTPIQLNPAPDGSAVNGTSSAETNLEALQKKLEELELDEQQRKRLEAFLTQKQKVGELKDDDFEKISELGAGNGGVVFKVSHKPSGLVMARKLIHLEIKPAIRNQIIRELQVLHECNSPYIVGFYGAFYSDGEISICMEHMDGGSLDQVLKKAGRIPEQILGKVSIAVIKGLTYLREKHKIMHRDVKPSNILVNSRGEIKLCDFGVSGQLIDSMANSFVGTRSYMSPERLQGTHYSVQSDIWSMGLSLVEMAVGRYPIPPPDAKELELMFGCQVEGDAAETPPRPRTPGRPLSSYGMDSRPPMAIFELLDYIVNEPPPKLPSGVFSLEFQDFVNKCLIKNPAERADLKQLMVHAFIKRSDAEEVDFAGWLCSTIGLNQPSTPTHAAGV

Series 1
SMILES: CN1CCN(C(=O)c2ccc(NC(=O)Nc3ccc(N(C)c4ccnc(Nc5ccc(CS(C)(=O)=O)cc5)n4)cc3)cc2)CC1
Read-out: binding
Concentration: 1 µM
target | technique | remaining binding [%]
MAPK1 (Homo sapiens, UniProt P28482) | – | 100
TSSK1B (Homo sapiens, UniProt Q9BXA7) | – | 96
KIT (Homo sapiens, UniProt P10721, T670I/V559D) | – | 0.1
ERN1 (Homo sapiens, UniProt O75460) | – | 25
COQ8A (Homo sapiens, UniProt Q8NI60) | competition with immobilised ligand | 100
NIM1K (Homo sapiens, UniProt Q8IY84) | – | 99
TEK (Homo sapiens, UniProt Q02763) | competition with immobilised ligand | 41
CHEK1 (Homo sapiens, UniProt O14757) | – | 100
CAMKK2 (Homo sapiens, UniProt Q96RR4) | – | 100
FGFR4 (Homo sapiens, UniProt P22455) | – | 100
CHUK (Homo sapiens, UniProt O15111) | – | 90
NTRK2 (Homo sapiens, UniProt Q16620) | competition with immobilised ligand | 11
MAP3K13 (Homo sapiens, UniProt O43283) | competition with immobilised ligand | 70
ITK (Homo sapiens, UniProt Q08881) | – | 98
MST1R (Homo sapiens, UniProt Q04912) | – | 41

Series 2
Cell line: HaCaT
Concentration: 100 µM
Time: 60 h
SMILES | viability [%]
C[C@H](CCC(=O)O)[C@H]1CC[C@H]2[C@@H]3CC[C@@H]4C[C@H](O)CC[C@]4(C)[C@H]3C[C@H](O)[C@]12C | 119
CCOC(=O)c1c(CSc2ccccc2)n(C)c2cc(Br)c(O)c(CN(C)C)c12 | 13.9
O=c1ccc2ccc(O)c(O)c2o1 | 120
C[C@H]1COc2c(C3(N)CC3)c(F)cc3c(=O)c(C(=O)O)cn1c23 | 140
O=C(O)c1ccccc1C(=O)Nc1ccc(S(=O)(=O)Nc2nccs2)cc1 | 113
CO/N=C(\C(=O)N[C@@H]1C(=O)N2C(C(=O)O)=C(C[N+]3(C)CCCC3)CS[C@H]12)c1csc(N)n1 | 144
COc1cc2c(cc1OC)[C@@H]1Cc3ccc(OC)c(OC)c3CN1CC2 | 129
CN1CCc2c(c3ccccc3n2Cc2ccccc2)C1 | 113
CC(=O)[C@@]1(O)CC[C@H]2[C@@H]3CCC4=CC(=O)CC[C@]4(C)[C@H]3CC[C@@]21C | 107

Series 3
Structure (SMILES): CCc1ccccc1C(=O)Nc1n[nH]c2c(C)c(F)c(C3C(C#N)=C(C)N(C)C(C)=C3C#N)cc12
Read-out: cell-free assay
Technique: competition with immobilised ligand
Concentration: 1 µM
target | remaining binding
ERN1 (Homo sapiens, UniProt O75460) | 70%
MAP3K3 (Homo sapiens, UniProt Q99759) | 100%
PRKD3 (Homo sapiens, UniProt O94806) | 88%
FLT3 (Homo sapiens, UniProt P36888, D835H) | 16%
DMPK (Homo sapiens, UniProt Q09013) | 100%
HCK (Homo sapiens, UniProt P08631) | 100%
WNK3 (Homo sapiens, UniProt Q9BYP7) | 90%
PIK3CA (Homo sapiens, UniProt P42336, E542K) | 54%
MAP3K15 (Homo sapiens, UniProt Q6ZN16) | 96%
MAP3K1 (Homo sapiens, UniProt Q13233) | 100%
NEK3 (Homo sapiens, UniProt P51956) | 100%
CDK13 (Homo sapiens, UniProt Q14004) | 100%
MAP2K1 (Homo sapiens, UniProt Q02750) | 100%
CSNK2A2 (Homo sapiens, UniProt P19784) | 100%
Ribosomal protein S6 kinase alpha-6, C-terminal kinase domain (RPS6KA6, Homo sapiens, UniProt Q9UK32) | 100%
TAOK3 (Homo sapiens, UniProt Q9H2K8) | 38%
MAPK11 (Homo sapiens, UniProt Q15759) | 91%
MKNK2 (Homo sapiens, UniProt Q9HBH9) | 98%

Series 4
Target: Receptor tyrosine-protein kinase erbB-2 (ERBB2, Homo sapiens, UniProt P04626)
Read-out: enzyme activity
Mode: inhibitor
Concentration: 0.5 µM
Baseline: control
SMILES | remaining activity [%]
Cc1cc2ncc(-c3ccccc3)nc2cc1C | 97.4
COc1cc2c(cc1OC)-c1[nH]nc(Nc3cccc(F)c3)c1C2 | 101
O=C1c2ccccc2-c2n[nH]c3cccc1c23 | 98
CCN(CC)C(=O)c1ccc(Nc2nc(OCC3CCCCC3)c3[nH]cnc3n2)cc1 | 99.4
O=C(NC(NC(=S)Nc1ccc(F)c([N+](=O)[O-])c1)C(Cl)(Cl)Cl)C(c1ccccc1)c1ccccc1 (stereo not shown) | 94.8
Nc1cccc(-c2cc3c(Oc4cccc(O)c4)ncnc3[nH]2)c1 | 76.6
COc1cc2ncnc(Nc3cccc(Cl)c3)c2cc1OC | 22.5
O=C(Nc1cccc(Nc2nccc(Nc3cccc(C(F)(F)F)c3)n2)c1)C1CC1 | 93.8
CN(C)C[C@H]1CCn2c(c(C3=C(c4cn(C)c5ccccc45)C(=O)NC3=O)c3ccccc32)C1 | 95.9
c1ccc(-c2[nH]ncc2-c2ccnc3ccccc23)nc1 | 106
O=c1cc(-c2cccc3c2Sc2ccccc2S3)oc(N2CCOCC2)c1 | 97.3
N#C/C(=C\c1ccc(O)c(O)c1)C(=O)NCc1ccccc1 | 97.6
CN([C@@H](Cc1ccc(OS(=O)(=O)c2cccc3cnccc23)cc1)C(=O)N1CCN(c2ccccc2)CC1)S(=O)(=O)c1cccc2cnccc12 | 96

Excerpt of the above (series 3):
target | remaining binding
FLT3 (Homo sapiens, UniProt P36888, D835H) | 16%
DMPK (Homo sapiens, UniProt Q09013) | 100%
HCK (Homo sapiens, UniProt P08631) | 100%
WNK3 (Homo sapiens, UniProt Q9BYP7) | 90%
PIK3CA (Homo sapiens, UniProt P42336, E542K) | 54%
